Assay results from different studies.
Each numbered part is a random draw from the data of one study; scales do not carry over between parts.

Study 1 — method: RNA Bind-n-Seq; form: RNA; matrix: in vitro; concentration: not given; relative to: input RNA pool; direction: higher = stronger binding; measurement: bound/input enrichment
Target: RING finger protein unkempt homolog, zinc fingers 1-6, GST-SBP tag (UNK, Homo sapiens, UniProt Q9C0B0, residues 30-357)
Sequence of UniProt Q9C0B0 (30-357, looked up): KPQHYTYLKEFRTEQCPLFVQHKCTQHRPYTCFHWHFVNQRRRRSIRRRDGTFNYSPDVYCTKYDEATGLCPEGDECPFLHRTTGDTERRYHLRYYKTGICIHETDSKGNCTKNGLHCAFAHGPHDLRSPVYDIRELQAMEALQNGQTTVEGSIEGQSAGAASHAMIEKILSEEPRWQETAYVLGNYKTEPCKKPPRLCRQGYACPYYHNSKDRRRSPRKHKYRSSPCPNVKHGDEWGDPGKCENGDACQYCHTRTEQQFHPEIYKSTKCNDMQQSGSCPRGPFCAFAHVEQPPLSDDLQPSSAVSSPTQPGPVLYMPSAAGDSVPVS
Setting: RNA with constant flanks, human-mouse chimeric sites, ends assumed
GGGAGUUCUACAGUCCGACGAUCGAUCAUGAACCACCAUCAGAAAUGAAGAUGAGAUUACCCAGACGAGCCAAAACAGCUAGCACUAGAAAAAGUAAACUUAACCUUGCAGAGUUCCUUAAUGAAGAUACAAGUUAAGAGAGCCAACAGAGGAUUGAGCAUCA: 3.92 ratio
GGGAGUUCUACAGUCCGACGAUCCACAGAGGAGAUCUGCUGUUCCUCACAAAUUUCCGGGAAGACCCAAUCAGAGCUGGUGAAAUAGUUGUUUUUAAGGUUGAAGGAAGAGACAUUCCGAUAGUUCACAGAGUAAUCAAGGUUCAACAGAGGAUUGAGCAUCA: 1.33 ratio
GGGAGUUCUACAGUCCGACGAUCGUUCGGCUCUGGGAUCAUGCUACUAUGACAGAAGUGAAAUCUCUGAAUUUUAAUAUGUCUGUUAGCAGCAUGGAGUAUAUUCCUGAAGGAGAGAUUUUGGUUAUUACUUAUGGACGAUCUCAACAGAGGAUUGAGCAUCA: 0.318 ratio
GGGAGUUCUACAGUCCGACGAUCUAAAUUAGGGCUGCCGUUUUCUGUUUCUCCCUGGGCUGCGGAAAGCCAGAAGAUUUUAUCUAGUUUGUACAAGGCUGCUGGUGUUCCCUCUUUUUUUCCACGAGGGUUUUUUUUCCAGCACAACAGAGGAUUGAGCAUCA: 1.58 ratio

Study 2 — method: RNA Bind-n-Seq; form: RNA; matrix: in vitro; concentration: 20 nM; setting: 6-mer, flanks averaged, single round; added: 150 mM KCl; relative to: input library; direction: higher = stronger binding; measurement: 6-mer enrichment (R)
Target: TAR DNA-binding protein 43, full length, His tag (TARDBP, Homo sapiens, UniProt Q13148, residues 1-414)
GGUGCU: 1.32
GGCCUG: 1.56
GCCUCU: 0.637
UGACCU: 0.639
UGUUGG: 1.31
AACGAU: 0.597

Study 3 — method: protein binding microarray; form: double-stranded DNA, one strand shown; matrix: in vitro; concentration: not given; relative to: not given; direction: higher = stronger binding; measurement: E-score
Target: Histone acetyltransferase KAT6A, winged helix 1, GST fusion (KAT6A, Homo sapiens, UniProt Q92794, residues 1-85)
Setting: 8-mer, flanks averaged, mean of 2 arrays, mostly near background
Construct (chain): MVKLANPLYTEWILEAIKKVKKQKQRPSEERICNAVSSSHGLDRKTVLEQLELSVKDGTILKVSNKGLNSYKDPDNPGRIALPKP
ACTCTGTA: -0.0687
AACGCGCT: 0.382
ACACAACT: -0.218
AAATAGGG: -0.0951
GCTTACAA: -0.0542
AGAGCGCA: 0.211
TATGGAAA: -0.232

Other studies, line by line
PhoQ, residues 284 288 289 292 302 303 TYGVAM
fold induction (PhoP, residues 12 14 15 18 19 VQGLL (Escherichia coli, UniProt P23836); Sort-seq, item: YFP reporter; E. coli; PhoQ-PhoP variant library, added: 10 µM Mg2+; relative to: high Mg2+ state, higher = stronger signaling): 18.9

A few entries again (study 3):
ACTCTGTA: -0.0687
AGAGCGCA: 0.211
